{"data": "Published values collected from several papers", "note": "Parts stem from different laboratories: compare values within a part only."}
{"data": "Series 1", "target": "RNA binding protein fox-1 homolog 2, RRM domain, GST-SBP tag (RBFOX2, Homo sapiens, UniProt O43251-10, residues 100-194)", "technique": "RNA Bind-n-Seq", "molecule type": "RNA", "medium": "in vitro", "concentration": "365 nM", "setting": "natural RNA segment, single round, ends assumed", "reference": "no-protein control", "direction": "higher = stronger binding", "Residues (chain)": "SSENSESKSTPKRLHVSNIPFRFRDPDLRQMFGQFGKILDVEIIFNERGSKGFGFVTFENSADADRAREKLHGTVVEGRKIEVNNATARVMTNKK"}
{"Sequence": "GGGAGUUCUACAGUCCGACGAUCGCACACAGAGUUCAUGUUUGCGCCCUCUCCCUGCCCCUCACCCCAGAGGGUGAGGAGGAAUGAGGGGCAUUGGUGGUUAGGCCGGUUGGCUGUCUUGAACAGCUGGAGGGUGGAAUUCUCGGGUGCCAA", "RBNS enrichment (R)": 1.47}
{"Sequence": "GGGAGUUCUACAGUCCGACGAUCCAAAUAAUGAAUCUUCGGGUGUUUCCCUUUAGCUAAGCACAGAUCUACCUUGGUGAUUUGGACCCUGGUUGCUUUGUGUCUAGUUUUCUAGACCCUUCAUCUCUUACUUGUGGAAUUCUCGGGUGCCAA", "RBNS enrichment (R)": 0.283}
{"Sequence": "GGGAGUUCUACAGUCCGACGAUCAUUGAGAAUAUAAAGAACAGUGCCUUAGAAGACAGUGAAAGGUAAGCUCUAGCUUAAUGUCUAUGAUUUGUUCUUUGACAUUAAGGAAGGUAAGGAUUGGUCAGAGGAUGUGGAAUUCUCGGGUGCCAA", "RBNS enrichment (R)": 0.42}
{"data": "Series 2", "target": "Histone acetyltransferase KAT6A, winged helix 2, GST fusion (KAT6A, Homo sapiens, UniProt Q92794, residues 85-181)", "technique": "protein binding microarray", "molecule type": "double-stranded DNA, one strand shown", "medium": "in vitro", "concentration": "not given", "setting": "8-mer, flanks averaged, mean of 2 arrays, mostly near background", "reference": "not given", "direction": "higher = stronger binding", "Target sequence (chain)": "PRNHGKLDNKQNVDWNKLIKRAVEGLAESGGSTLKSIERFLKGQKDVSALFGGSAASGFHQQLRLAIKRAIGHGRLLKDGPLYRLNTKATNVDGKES"}
{"Sequence": "AAGGACTA", "E-score": -0.101}
{"Sequence": "AGACACAA", "E-score": 0.00106}
{"Sequence": "GCTCACGA", "E-score": 0.0552}
{"data": "Further values, each from its own experiment", "UNK zinc fingers 1-6, SBP tag": "RING finger protein unkempt homolog, zinc fingers 1-6, SBP tag (UNK, Homo sapiens, UniProt Q9C0B0, residues 30-357)", "UniProt Q9C0B0, sequence (30-357, looked up)": "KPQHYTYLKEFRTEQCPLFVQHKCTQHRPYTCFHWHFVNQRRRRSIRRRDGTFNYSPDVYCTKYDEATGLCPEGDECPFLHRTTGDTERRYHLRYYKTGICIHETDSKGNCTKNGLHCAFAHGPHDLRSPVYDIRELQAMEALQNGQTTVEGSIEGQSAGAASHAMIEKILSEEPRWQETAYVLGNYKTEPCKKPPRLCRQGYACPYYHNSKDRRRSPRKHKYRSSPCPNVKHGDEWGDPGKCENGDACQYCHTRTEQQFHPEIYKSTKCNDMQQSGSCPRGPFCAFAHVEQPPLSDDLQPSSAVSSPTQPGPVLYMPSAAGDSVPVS"}
{"Substance": "GGGAGUUCUACAGUCCGACGAUCCCCGCCUCCUGCGGGGGUGUGACCGAGGCCAAAGCAUCCACCGUUGCUGCGAGGGGUCCACGGUAUUUUUUUUUUUGCUGCCUCAGUCCCCAGAGCCUUCAAGCAACAGUGGCAGUAGAUCAACAGAGGAUUGAGCAUCA", "target": "UNK zinc fingers 1-6, SBP tag", "assay": "RNA Bind-n-Seq", "system": "RNA, in vitro", "setting": "100 nM, RNA with constant flanks, vertebrate orthologous sites, ends assumed", "scale": "reference: input RNA pool, higher = stronger binding", "endpoint": "bound/input enrichment", "value": "0.382 ratio"}
{"Substance": "PhoQ, residues 284 288 289 292 302 303 AQGLTV", "target": "PhoP, residues 12 14 15 18 19 NMSFL (Escherichia coli, UniProt P23836)", "assay": "Sort-seq, refers to: YFP reporter", "system": "E. coli", "setting": "PhoQ-PhoP variant library, added: 10 µM Mg2+", "scale": "reference: high Mg2+ state, higher = stronger signaling", "endpoint": "fold induction", "value": 1.16}
{"Substance": "GGGAGUUCUACAGUCCGACGAUCAGAAAAUUUUAACCAGGAAUCUGAAGGUAGACACACAGGACCAUGGUUAUCGUCCUCACUUAGAAAUAGAUGCACACCUUUGUUCUCUAGAAGGAGGAGAGAAGGAAGAGAUGAAUCCUCCAACAGAGGAUUGAGCAUCA", "target": "UNK zinc fingers 1-6, SBP tag", "assay": "RNA Bind-n-Seq", "system": "RNA, in vitro", "setting": "100 nM, RNA with constant flanks, vertebrate orthologous sites, ends assumed", "scale": "reference: input RNA pool, higher = stronger binding", "endpoint": "bound/input enrichment", "value": "0.534 ratio"}
{"Substance": "GGGAGUUCUACAGUCCGACGAUCGCAAAGGAAAAGCAGCCCUUCUCCCAGCCCCUUUUUCACUAGGAGAUACAAACGUUACCAUAGAAGAGCAAUUAAACUCAAUAAAUUUAUCUUUUCAGGAUGAUCCAGACUCCAGUACCACAACAGAGGAUUGAGCAUCA", "target": "UNK zinc fingers 1-6, SBP tag", "assay": "RNA Bind-n-Seq", "system": "RNA, in vitro", "setting": "100 nM, RNA with constant flanks, vertebrate orthologous sites, ends assumed", "scale": "reference: input RNA pool, higher = stronger binding", "endpoint": "bound/input enrichment", "value": "1.4 ratio"}
{"note": "For quick reference, copied from above (further values, each from its own experiment):"}
{"Substance": "PhoQ, residues 284 288 289 292 302 303 AQGLTV", "target": "PhoP, residues 12 14 15 18 19 NMSFL (Escherichia coli, UniProt P23836)", "assay": "Sort-seq, refers to: YFP reporter", "system": "E. coli", "setting": "PhoQ-PhoP variant library, added: 10 µM Mg2+", "scale": "reference: high Mg2+ state, higher = stronger signaling", "endpoint": "fold induction", "value": 1.16}
